Measurements pooled from the literature.
Parts stem from different laboratories: compare values within a part only. Substitutions count along the parent as printed.

Series 1
Target: Sal-like protein 4, full length isoform B (SALL4, Homo sapiens, UniProt Q9UJQ4-2, residues 1-616)
Technique: universal PBM
Form: double-stranded DNA, one strand shown
Medium: in vitro
Concentration: not given
Notes: 8-mer, flanks averaged, mean of replicates
Reading: higher = stronger binding
Residues (chain): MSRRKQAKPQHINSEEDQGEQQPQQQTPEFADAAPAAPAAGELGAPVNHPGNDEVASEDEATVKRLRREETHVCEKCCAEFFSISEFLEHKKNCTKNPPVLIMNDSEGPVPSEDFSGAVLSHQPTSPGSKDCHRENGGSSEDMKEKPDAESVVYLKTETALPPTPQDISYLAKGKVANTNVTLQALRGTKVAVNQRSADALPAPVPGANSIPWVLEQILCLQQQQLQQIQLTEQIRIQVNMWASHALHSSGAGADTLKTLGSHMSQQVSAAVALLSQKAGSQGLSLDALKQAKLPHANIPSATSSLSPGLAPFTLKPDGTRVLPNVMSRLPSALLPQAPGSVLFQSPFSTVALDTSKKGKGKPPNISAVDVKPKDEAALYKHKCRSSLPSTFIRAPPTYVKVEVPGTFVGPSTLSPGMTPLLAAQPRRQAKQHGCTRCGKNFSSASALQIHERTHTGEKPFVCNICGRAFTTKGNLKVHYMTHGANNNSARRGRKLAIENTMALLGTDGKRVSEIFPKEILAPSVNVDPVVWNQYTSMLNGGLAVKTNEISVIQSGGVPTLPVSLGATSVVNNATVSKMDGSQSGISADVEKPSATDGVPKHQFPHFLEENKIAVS
Sequence | E-score
AAGTTGCT | 0.00263
TATTTTGA | 0.285
ATCCCGCC | -0.338
GGTTGGAA | -0.239
CCCTCGGA | -0.133
GACGACTC | -0.311
ATCTCCCC | -0.12
GGTTCCCA | -0.169

Series 2
Target: Prothrombin, mature alpha-thrombin (F2, Homo sapiens, UniProt P00734)
Technique: aptamer microarray, sandwich
Form: DNA with 2'F-ANA
Medium: in vitro
Concentration: 200 nM
Notes: whole 15-mer aptamer, many near background
Added: Cy3 exosite-II aptamer, 400 nM
Reading: higher = stronger binding
Sequence: GGTTGGTGTGGTTGG
Modification | mean fluorescence intensity
2'F-ANA at 1 3 10 11 13 14 | 120 a.u.
2'F-ANA at 5 6 7 11 14 15 | 44.5 a.u.
2'F-ANA at 1 2 3 4 5 10 12 13 14 15 | 50.9 a.u.
2'F-ANA at 1 3 4 5 7 10 13 15 | 49.3 a.u.
2'F-ANA at 2 8 12 15 | 815 a.u.
2'F-ANA at 1 3 4 5 6 9 10 15 | 48.9 a.u.
2'F-ANA at 1 2 3 8 10 12 | 119 a.u.
2'F-ANA at 5 7 9 10 12 13 15 | 104 a.u.

Series 3
Target: ATP-dependent RNA helicase DDX3X, helicase core (DDX3X, Homo sapiens, UniProt O00571, residues 132-607)
Chain of UniProt O00571 (132-607, looked up): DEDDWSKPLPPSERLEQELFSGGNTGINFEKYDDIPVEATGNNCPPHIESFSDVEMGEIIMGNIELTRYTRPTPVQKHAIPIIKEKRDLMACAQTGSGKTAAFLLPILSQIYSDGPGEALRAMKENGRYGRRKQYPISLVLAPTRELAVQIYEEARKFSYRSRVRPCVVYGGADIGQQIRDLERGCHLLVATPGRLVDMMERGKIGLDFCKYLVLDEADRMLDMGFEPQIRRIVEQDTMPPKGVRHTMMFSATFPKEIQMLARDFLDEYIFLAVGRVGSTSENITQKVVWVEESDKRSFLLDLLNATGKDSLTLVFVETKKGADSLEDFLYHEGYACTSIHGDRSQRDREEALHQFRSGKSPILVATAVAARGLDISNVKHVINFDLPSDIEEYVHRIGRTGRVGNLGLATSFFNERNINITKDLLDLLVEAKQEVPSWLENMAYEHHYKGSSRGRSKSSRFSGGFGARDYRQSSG
Technique: RNA Bind-n-Seq
Form: RNA
Medium: in vitro
Concentration: 90 pmol
Notes: 4-mer, random 30-nt RNA, single round
Added: 3 µM iPr-DMDA-PatA, 2 mM ADP, 2 mM phosphate
Relative to: input library
Reading: higher = stronger binding
Sequence | 4-mer enrichment [fold]
GAUG | 0.973
ACUC | 1.03
GAGC | 1.1
GGUC | 0.777
UGAU | 1.04
AGGU | 0.987
GCCU | 0.731
ACCG | 0.948

Mixed results
Starting sequence: PafA, mature enzyme, eGFP fusion (Elizabethkingia meningoseptica, UniProt Q9KJX5); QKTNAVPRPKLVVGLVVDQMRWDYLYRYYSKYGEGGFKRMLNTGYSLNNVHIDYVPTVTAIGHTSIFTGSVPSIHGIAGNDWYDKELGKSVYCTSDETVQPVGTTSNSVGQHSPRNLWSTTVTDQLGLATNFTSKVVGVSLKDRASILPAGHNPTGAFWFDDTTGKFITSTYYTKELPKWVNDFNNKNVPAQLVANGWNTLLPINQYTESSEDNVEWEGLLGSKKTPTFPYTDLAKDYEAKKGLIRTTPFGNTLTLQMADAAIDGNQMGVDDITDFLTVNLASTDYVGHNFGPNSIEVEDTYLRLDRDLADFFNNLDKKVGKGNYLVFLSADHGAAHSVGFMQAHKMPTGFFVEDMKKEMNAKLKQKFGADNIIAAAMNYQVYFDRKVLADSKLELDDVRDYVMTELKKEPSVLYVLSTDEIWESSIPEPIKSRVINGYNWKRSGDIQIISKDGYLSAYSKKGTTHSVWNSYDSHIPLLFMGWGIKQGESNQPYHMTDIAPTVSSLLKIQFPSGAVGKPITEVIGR
Change | target | test | test system | setting | how to read | quantity | result
Y302V | vanadate, free oxyanion | microfluidic competitive inhibition | in vitro, cell-free expressed | not given, derived from inhibition constants, unchanged parent 676 nM | lower = stronger binding | oxyanion analog dissociation constant | 2.23 µM
